Measured values gathered from unrelated publications.
Every numbered part comes from another study and shows a few of its results, in no order.

Series 1 — technique: protein binding microarray; molecule type: double-stranded DNA, one strand shown; medium: in vitro; tested at: not given; relative to: not given; direction: higher = stronger binding
Target: Histone acetyltransferase KAT6A, both winged helices, GST fusion (KAT6A, Homo sapiens, UniProt Q92794, residues 1-181)
Setting: 8-mer, flanks averaged, mean of 2 arrays, mostly near background
Residues (chain): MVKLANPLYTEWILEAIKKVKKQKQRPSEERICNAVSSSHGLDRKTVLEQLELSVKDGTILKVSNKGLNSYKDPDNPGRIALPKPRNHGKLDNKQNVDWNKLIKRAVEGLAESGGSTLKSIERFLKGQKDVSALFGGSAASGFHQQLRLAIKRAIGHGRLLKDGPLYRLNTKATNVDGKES
| Sequence | E-score |
| --- | --- |
| ATCCACAG | -0.0813 |
| GCCGCCCC | 0.2 |
| CTAGAACC | -0.0465 |
| ACTTACGC | 0.101 |
| TACTTACA | -0.0982 |
| ATCGGTTG | -0.00278 |

Series 2 — technique: protein-binding microarray; molecule type: double-stranded DNA, one strand shown; medium: in vitro; tested at: 2200 nM top; setting: 60-bp whole probe; together with: salmon DNA 0.4 mg/ml; relative to: random background probes; direction: higher = stronger binding
Target: Interferon regulatory factor 7, full length, phosphomimetic (IRF7, Homo sapiens, UniProt Q92985, residues 1-503, S471D/S472D/S475D/S476D/S477D/S483D/S484D/S487D)
Construct (chain): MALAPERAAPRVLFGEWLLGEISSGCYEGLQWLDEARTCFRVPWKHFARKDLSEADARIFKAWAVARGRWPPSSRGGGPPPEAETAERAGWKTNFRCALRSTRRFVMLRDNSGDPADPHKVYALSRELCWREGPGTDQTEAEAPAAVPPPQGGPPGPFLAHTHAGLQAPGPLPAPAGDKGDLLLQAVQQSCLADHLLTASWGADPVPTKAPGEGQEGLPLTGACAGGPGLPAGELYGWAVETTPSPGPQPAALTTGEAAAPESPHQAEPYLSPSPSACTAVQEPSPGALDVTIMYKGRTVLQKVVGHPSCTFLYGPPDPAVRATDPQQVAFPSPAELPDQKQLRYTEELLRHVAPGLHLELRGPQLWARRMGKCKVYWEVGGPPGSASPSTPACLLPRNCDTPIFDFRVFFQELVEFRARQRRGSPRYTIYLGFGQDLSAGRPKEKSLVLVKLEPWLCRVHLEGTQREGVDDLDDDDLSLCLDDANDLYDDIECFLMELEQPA
| Sequence | fitted relative affinity [z-score] |
| --- | --- |
| GCCTAGCACTTAGGTTCCAGTTTCGATTAGTGCTAGGTCTTGATTCGCTTGACGCTGCTG | 6.74 |
| GCCTAGCACTTAGGTATCGGACTGGGTTGGTGCTAGGTCTTGATTCGCTTGACGCTGCTG | -0.122 |
| GCCTAGCACCAGCCTCTGAGCAGCTCGGCGTGCTAGGTCTTGATTCGCTTGACGCTGCTG | -0.367 |

Series 3 — technique: RNAcompete; molecule type: RNA; medium: in vitro; tested at: 20 nM; setting: 7-mer, probes averaged, single round; relative to: mean of 7-mers; direction: higher = stronger binding
Target: PABPC1L2, full length, GST fusion (mouse, UniProt A0ABA7IW68)
Target sequence (chain): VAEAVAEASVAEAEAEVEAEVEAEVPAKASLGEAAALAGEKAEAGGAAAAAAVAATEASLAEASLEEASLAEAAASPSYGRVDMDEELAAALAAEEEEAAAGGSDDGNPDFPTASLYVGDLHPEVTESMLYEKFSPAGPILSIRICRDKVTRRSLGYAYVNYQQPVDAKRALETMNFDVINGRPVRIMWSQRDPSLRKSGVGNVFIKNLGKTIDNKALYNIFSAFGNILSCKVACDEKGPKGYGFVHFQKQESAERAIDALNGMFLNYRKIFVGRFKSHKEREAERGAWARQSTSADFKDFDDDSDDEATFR
| Sequence | 7-mer Z-score |
| --- | --- |
| CGUAUUG | -0.0627 |
| GGGUACA | 0.41 |
| GUUAGAC | -0.249 |
| UACAACG | 0.00617 |

Single results of other studies
| Molecule | target | test | test system | conditions | scale | measurement | result |
| --- | --- | --- | --- | --- | --- | --- | --- |
| PhoQ, residues 284 288 289 292 302 303 ALAMYF | PhoP, residues 12 14 15 18 19 NQGLL (Escherichia coli, UniProt P23836) | Sort-seq, measured: YFP reporter | E. coli | PhoQ-PhoP variant library, together with: 10 µM Mg2+ | relative to: high Mg2+ state, higher = stronger signaling | fold induction | 9.19 |

Repeated from above (single results of other studies):
| Molecule | target | test | test system | conditions | scale | measurement | result |
| --- | --- | --- | --- | --- | --- | --- | --- |
| PhoQ, residues 284 288 289 292 302 303 ALAMYF | PhoP, residues 12 14 15 18 19 NQGLL (Escherichia coli, UniProt P23836) | Sort-seq, measured: YFP reporter | E. coli | PhoQ-PhoP variant library, together with: 10 µM Mg2+ | relative to: high Mg2+ state, higher = stronger signaling | fold induction | 9.19 |
